# Results collected from several papers.
# Numbered parts are unrelated; each lists some results of a single study.
# Sequence of UniProt Q8TF76 (whole entry, looked up): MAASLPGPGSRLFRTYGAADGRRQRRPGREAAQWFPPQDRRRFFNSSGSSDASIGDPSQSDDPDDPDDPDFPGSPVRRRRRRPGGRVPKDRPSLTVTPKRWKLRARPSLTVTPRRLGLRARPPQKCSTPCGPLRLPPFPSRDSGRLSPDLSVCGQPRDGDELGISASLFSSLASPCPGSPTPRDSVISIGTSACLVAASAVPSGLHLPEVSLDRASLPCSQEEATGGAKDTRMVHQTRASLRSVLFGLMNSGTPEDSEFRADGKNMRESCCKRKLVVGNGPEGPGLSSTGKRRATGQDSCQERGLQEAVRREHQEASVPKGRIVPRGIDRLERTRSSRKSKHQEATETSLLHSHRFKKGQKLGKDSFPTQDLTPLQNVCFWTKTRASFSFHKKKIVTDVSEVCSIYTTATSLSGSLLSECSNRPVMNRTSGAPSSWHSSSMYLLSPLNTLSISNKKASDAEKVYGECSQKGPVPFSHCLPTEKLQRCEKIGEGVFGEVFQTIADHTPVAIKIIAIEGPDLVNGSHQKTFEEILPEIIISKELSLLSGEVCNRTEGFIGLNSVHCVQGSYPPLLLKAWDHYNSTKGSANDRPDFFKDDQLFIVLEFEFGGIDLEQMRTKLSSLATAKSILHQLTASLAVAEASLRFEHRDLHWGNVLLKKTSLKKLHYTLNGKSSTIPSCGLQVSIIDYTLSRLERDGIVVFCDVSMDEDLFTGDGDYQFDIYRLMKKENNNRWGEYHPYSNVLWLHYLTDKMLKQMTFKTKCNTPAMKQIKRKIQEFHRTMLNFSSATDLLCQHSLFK
# Sequence of UniProt P37023 (whole entry, looked up): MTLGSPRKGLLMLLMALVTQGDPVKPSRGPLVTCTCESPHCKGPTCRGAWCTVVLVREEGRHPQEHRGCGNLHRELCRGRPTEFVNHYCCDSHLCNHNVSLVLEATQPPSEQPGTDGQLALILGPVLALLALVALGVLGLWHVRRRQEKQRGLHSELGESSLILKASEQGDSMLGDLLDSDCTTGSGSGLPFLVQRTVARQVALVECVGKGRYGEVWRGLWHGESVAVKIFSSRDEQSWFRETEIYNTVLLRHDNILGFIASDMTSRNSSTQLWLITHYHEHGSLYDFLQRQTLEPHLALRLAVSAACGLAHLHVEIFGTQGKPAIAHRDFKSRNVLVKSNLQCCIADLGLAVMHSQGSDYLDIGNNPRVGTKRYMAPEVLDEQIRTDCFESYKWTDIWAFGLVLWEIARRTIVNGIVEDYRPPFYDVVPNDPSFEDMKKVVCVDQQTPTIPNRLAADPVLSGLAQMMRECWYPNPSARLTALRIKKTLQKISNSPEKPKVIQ
# Sequence of UniProt Q86UX6 (whole entry, looked up): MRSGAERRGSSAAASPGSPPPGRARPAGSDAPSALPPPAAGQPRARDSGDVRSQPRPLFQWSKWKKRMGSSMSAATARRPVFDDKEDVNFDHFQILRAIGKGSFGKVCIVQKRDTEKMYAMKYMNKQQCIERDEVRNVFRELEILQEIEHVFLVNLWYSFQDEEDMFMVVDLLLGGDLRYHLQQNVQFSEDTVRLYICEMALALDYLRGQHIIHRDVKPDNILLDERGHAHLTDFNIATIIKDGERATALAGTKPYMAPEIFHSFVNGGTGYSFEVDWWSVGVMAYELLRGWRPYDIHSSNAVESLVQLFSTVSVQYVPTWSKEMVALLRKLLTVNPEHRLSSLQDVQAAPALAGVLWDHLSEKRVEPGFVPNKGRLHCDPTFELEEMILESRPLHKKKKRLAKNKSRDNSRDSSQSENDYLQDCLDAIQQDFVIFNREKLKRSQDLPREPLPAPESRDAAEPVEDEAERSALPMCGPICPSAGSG
# Sequence of UniProt P42681 (whole entry, looked up): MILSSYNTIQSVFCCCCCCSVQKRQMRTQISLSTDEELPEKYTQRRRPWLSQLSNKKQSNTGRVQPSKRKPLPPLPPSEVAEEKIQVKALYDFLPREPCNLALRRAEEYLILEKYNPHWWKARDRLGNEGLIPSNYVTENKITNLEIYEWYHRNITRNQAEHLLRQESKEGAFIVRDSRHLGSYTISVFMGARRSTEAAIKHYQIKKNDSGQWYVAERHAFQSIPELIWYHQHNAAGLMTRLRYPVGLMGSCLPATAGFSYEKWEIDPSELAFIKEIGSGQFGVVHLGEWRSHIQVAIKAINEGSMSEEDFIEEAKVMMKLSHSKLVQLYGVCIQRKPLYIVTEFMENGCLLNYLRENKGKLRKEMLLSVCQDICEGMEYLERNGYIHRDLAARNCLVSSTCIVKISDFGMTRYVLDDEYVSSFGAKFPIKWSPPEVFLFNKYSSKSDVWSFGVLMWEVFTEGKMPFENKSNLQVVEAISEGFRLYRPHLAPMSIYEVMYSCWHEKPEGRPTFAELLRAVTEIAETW
# Sequence of UniProt Q9HBY8 (whole entry, looked up): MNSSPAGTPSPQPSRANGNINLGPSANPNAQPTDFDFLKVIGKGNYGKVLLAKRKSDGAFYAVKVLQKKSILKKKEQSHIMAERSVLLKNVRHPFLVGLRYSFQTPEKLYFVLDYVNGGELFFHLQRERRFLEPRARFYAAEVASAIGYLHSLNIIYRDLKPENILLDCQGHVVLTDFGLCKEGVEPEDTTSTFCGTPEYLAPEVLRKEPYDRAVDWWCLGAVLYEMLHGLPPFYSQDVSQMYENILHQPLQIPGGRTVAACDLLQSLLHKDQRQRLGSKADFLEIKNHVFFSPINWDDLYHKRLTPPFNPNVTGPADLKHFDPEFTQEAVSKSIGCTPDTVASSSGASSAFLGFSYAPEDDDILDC
# Sequence of UniProt Q05513 (whole entry, looked up): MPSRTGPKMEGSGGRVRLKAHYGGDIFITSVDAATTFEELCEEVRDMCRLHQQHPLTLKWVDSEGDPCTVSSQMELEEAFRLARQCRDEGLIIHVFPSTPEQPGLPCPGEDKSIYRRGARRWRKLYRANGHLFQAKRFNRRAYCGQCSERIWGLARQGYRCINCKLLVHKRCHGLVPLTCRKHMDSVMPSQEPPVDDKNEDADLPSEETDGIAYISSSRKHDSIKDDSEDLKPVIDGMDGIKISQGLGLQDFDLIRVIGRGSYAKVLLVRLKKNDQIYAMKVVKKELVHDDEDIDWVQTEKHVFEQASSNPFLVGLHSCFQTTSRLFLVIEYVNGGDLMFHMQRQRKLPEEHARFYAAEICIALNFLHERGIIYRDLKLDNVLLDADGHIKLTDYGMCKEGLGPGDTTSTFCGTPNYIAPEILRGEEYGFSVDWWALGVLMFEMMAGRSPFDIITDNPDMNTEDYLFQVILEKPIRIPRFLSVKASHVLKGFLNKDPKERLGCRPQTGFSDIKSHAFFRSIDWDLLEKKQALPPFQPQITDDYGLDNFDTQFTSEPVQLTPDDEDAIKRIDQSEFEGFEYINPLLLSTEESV
# Sequence of UniProt P07332 (whole entry, looked up): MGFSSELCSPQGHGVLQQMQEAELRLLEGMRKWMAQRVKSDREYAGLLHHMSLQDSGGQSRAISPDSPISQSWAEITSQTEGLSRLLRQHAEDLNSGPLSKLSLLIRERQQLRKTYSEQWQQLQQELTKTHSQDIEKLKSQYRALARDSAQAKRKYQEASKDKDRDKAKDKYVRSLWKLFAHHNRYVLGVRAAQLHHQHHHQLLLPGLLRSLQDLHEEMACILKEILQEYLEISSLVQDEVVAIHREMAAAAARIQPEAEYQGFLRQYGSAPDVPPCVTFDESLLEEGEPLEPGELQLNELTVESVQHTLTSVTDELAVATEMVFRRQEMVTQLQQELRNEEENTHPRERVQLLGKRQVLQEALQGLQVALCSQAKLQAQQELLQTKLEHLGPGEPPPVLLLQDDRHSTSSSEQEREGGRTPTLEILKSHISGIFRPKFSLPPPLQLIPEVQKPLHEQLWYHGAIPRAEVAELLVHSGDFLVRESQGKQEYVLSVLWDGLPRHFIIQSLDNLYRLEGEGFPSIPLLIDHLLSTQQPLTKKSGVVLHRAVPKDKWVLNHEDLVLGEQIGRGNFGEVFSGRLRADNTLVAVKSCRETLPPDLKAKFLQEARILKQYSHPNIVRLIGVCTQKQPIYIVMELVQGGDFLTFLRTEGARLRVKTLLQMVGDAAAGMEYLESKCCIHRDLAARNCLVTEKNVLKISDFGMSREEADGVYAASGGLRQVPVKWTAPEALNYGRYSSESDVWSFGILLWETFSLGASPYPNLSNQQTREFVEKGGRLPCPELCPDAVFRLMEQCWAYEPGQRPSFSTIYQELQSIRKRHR
# Sequence of UniProt Q96SB4 (whole entry, looked up): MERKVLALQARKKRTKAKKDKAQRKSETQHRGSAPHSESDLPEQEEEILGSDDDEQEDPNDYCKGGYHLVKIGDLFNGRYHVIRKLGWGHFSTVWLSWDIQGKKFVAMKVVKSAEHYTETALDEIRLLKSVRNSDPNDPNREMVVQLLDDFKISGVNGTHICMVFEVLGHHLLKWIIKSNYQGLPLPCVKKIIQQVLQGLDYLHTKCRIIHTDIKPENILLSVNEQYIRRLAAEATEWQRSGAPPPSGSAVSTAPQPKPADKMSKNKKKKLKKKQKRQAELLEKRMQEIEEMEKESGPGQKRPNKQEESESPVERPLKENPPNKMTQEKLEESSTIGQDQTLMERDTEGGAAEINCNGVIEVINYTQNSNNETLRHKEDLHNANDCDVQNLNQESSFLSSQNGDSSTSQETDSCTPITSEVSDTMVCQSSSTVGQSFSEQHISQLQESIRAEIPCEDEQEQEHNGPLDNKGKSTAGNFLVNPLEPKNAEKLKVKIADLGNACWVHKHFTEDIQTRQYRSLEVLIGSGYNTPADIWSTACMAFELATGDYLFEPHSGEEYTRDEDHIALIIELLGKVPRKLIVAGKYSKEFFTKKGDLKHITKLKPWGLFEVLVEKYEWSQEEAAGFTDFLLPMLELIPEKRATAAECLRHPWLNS

# Series 1 — method: competition with immobilised ligand; concentration: 1 µM
# SMILES: CNC(=O)Nc1ccc2c(c1)CC[C@@]21OC(=O)N(CC(=O)N(Cc2ccc(F)cc2)[C@@H](C)C(F)(F)F)C1=O
target,assay,remaining binding
"EGFR (Homo sapiens, UniProt P00533, del747-750/T751S)",cell-free assay,90%
"CSNK2A2 (Homo sapiens, UniProt P19784)",cell-free assay,100%
"STK32C (Homo sapiens, UniProt Q86UX6)",cell-free assay,88%
"TAOK3 (Homo sapiens, UniProt Q9H2K8)",cell-free assay,74%
"FLT3 (Homo sapiens, UniProt P36888, D835V/ITD)",cell-free assay,87%
"TXK (Homo sapiens, UniProt P42681)",binding,78%
"MAP3K3 (Homo sapiens, UniProt Q99759)",cell-free assay,86%
"PIK3CA (Homo sapiens, UniProt P42336, E542K)",cell-free assay,76%
"HCK (Homo sapiens, UniProt P08631)",cell-free assay,99%
"HASPIN (Homo sapiens, UniProt Q8TF76)",cell-free assay,100%
"MAP3K4 (Homo sapiens, UniProt Q9Y6R4)",cell-free assay,89%
"Tyrosine-protein kinase ABL1, non-phosphorylated (ABL1, Homo sapiens, UniProt P00519, F317L)",cell-free assay,64%

# Series 2 — Compound: CCOc1cc2ncnc(Nc3cccc(Br)c3)c2cc1OCC; observed: enzyme activity; action: inhibitor; concentration: 0.5 µM; reference: control
target,remaining activity [%]
"RPS6KA3 (Homo sapiens, UniProt P51812)",89.9
"SRPK1 (Homo sapiens, UniProt Q96SB4)",102
"PRKCZ (Homo sapiens, UniProt Q05513)",97.8
"JAK2 (Homo sapiens, UniProt O60674)",99
"Cyclin-dependent kinase 2, with cyclin E (CDK2, Homo sapiens, UniProt P24941)",94.4
"MARK1 (Homo sapiens, UniProt Q9P0L2)",90.3
"FES (Homo sapiens, UniProt P07332)",96.8
"DYRK1A (Homo sapiens, UniProt Q13627)",98.7
"SGK2 (Homo sapiens, UniProt Q9HBY8)",106
"PAK1 (Homo sapiens, UniProt Q13153)",95.2
"MAP3K20 (Homo sapiens, UniProt Q9NYL2)",89.8
"ACVRL1 (Homo sapiens, UniProt P37023)",103
"CAMK1 (Homo sapiens, UniProt Q14012)",79.9

# Series 3 — method: RNAcompete; molecule type: RNA; medium: in vitro; concentration: 20 nM; notes: 7-mer, probes averaged, single round; reference: mean of 7-mers; reading: higher = stronger binding
# Target: PABPC1L2, full length, GST fusion (mouse, UniProt A0ABA7IW68)
# Target sequence (chain): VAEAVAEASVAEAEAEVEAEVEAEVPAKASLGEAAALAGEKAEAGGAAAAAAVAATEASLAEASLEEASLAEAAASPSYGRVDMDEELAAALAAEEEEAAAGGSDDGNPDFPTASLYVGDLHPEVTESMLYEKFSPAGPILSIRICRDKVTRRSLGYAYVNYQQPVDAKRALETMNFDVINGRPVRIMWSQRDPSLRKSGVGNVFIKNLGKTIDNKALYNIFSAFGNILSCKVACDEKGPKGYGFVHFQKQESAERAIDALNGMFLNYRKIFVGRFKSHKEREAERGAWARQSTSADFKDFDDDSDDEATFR
Strand,7-mer Z-score
AAUAAUA,0.553
UUAGGGG,0.244
CGUAAAU,0.331
CAGAUCU,-0.142
AGCAGUU,-0.286
AGAUGGG,0.00436
CGGGCUU,0.0207
CUGAUGG,0.000733

# Mixed results
SMILES,system,endpoint,value
CCOC(=O)[C@@H]1CSCC(=O)N[C@H](CC)C(=O)N(C)[C@@H](C)C(=O)N[C@@H](CC(C)C)C(=O)N2CCC[C@@H]2C(=O)N(CC(C)C)CC(=O)N[C@@H](CC(C)C)C(=O)N(C)[C@@H](C)C(=O)N[C@@H](CC(C)C)C(=O)N1C,hydrocarbon/water,logD,1.8

# Repeated from above (series 3):
Strand,7-mer Z-score
CGGGCUU,0.0207
AGCAGUU,-0.286
CGUAAAU,0.331
